# Measured values pooled from the literature.
# Each line is one published result; not all experiments were run side by side. ± gives the spread as reported.
Substance,target,assay,system,conditions,scale,IC50
COc1cc(O)cc(/C=C/c2ccccc2)c1,Sp1 (human),"reporter gene, inhibitor",SW1353,control transcription factor,,23 µg/mL
C[C@@H]1CCCC(=O)N(C)/C=C/CC[C@H](C)C(=O)O[C@@H](C(C)(C)C)C1,voltage-gated sodium channels,"veratridine-stimulated Na+ influx, antagonist, SBFI fluorescence",primary mouse cerebrocortical neurons,,,> 10 µM
NC[C@H]1O[C@H](O[C@H]2[C@H](O)[C@@H](O[C@H]3O[C@H](CO)[C@@H](O)[C@H](N)[C@H]3O)[C@H](N)C[C@@H]2N)[C@H](N)C[C@@H]1O,Escherichia coli ribosome wild type,"EF-G-dependent translocation, inhibitor, toeprinting",,,,16 µM
NC[C@@H]1O[C@H](O[C@H]2[C@@H](O)[C@H](O[C@@H]3[C@@H](O)[C@H](N)C[C@H](N)[C@H]3O[C@H]3O[C@@H]4CO[C@@H](CCc5ccccc5)O[C@H]4[C@H](O)[C@H]3N)O[C@@H]2CO)[C@H](N)[C@@H](O)[C@@H]1O,Mycobacterium smegmatis ribosome G1491A,"translation, cell-free luciferase synthesis",,,,43 ± 11.3 µg/mL
COc1cc(/C=C/c2ccccc2)cc(OC)c1,Sp1 (human),"reporter gene, inhibitor",SW1353,control transcription factor,,> 25 µg/mL
NCC1OC(OC2C(CO)OC(OC3C(O)C(N)CC(N)C3OC3OC(CO)C(OCCCc4ccccc4)C(O)C3N)C2O)C(N)C(O)C1O (stereo not drawn),Mycobacterium smegmatis ribosome G1491A,"translation, cell-free luciferase synthesis",,,,51.3 ± 15.7 µg/mL
COC(=O)Nc1nc2ccc(C(=O)c3cccs3)cc2[nH]1,"tubulin, bovine brain","tubulin assembly, inhibitor",,"37 °C, tubulin 5 µM, 2% DMSO, with: paclitaxel 5 µM",,7.7 ± 0.2 µM
NC[C@H]1O[C@H](O[C@H]2[C@H](O)[C@@H](O[C@H]3O[C@H](CSc4ccccc4F)[C@@H](O)[C@H](N)[C@H]3O)[C@H](N)C[C@@H]2N)[C@H](N)C[C@@H]1O,"Escherichia coli ribosome, wild type","EF-G-dependent translocation, inhibitor, toeprinting",,"first inflection, biphasic fit",,< 1 µM
CC(C)=CCc1c(O)cc(/C=C/c2ccc(O)cc2)cc1O,Sp1 (human),"reporter gene, inhibitor",SW1353,control transcription factor,,< 0.025 µg/mL
myricitrin,class IIb HDAC (bovine),"enzyme activity, inhibitor",bovine heart tissue lysate,,,20 µM
COC(=O)c1ccc2c(c1)[C@@H](NC(C)=O)CCc1cc(OC)c(OC)c(OC)c1-2,"tubulin, bovine brain","tubulin assembly, inhibitor",,"37 °C, tubulin 5 µM, 2% DMSO, with: paclitaxel 5 µM",,2.2 ± 0.09 µM
CCCCCCCCCCSC[C@H]1O[C@H](O[C@@H]2[C@@H](O)[C@H](O[C@H]3O[C@H](CN)[C@@H](O)C[C@H]3N)[C@@H](N)C[C@H]2N)[C@H](O)[C@@H](N)[C@@H]1O,Escherichia coli ribosome wild type,"EF-G-dependent translocation, inhibitor, toeprinting",,,,> 1000 µM
Oc1ccc(/C=C/c2ccccc2)cc1O,Sp1 (human),"reporter gene, inhibitor",SW1353,control transcription factor,,> 25 µg/mL
cadmium acetate,androgen receptor (human),"PSA promoter-luciferase transcription, inhibitor",LAPC4,,,1.1 µM
CC(C)(O)C(O)Cc1c(O)cc(/C=C/c2ccccc2)cc1O (stereo not drawn),Sp1 (human),"reporter gene, inhibitor",SW1353,control transcription factor,,> 25 µg/mL
C/C=C1\NC(=O)[C@@H](NC(=O)[C@@H](NC(=O)[C@@H](COS(=O)(=O)O)OC)C(C)C)[C@@H](C)OC(=O)[C@H]([C@H](C)CC)NC(=O)[C@H](Cc2ccccc2)N(C)C(=O)[C@H](Cc2ccccc2)N2C(=O)[C@H](CC[C@H]2O)NC1=O,serine proteases panel,,,,,≥ 10 µM
O=C(O)C(=O)CBr,HDAC from MCF7 cells,inhibitor,,,,56 ± 11 µM
CONC(=O)[C@H]1[C@@H](O)[C@@]2(O)c3c(OC)cc(OC)cc3O[C@@]2(c2ccc(OC)cc2)[C@@H]1c1ccccc1,eIF4A,"cap-dependent translation, inhibitor, in vitro translation, bicistronic reporter, measured: firefly luciferase",Krebs-2 cell-free extract,,baseline: Renilla luciferase (HCV IRES),0.272 µM
O=C/C=C/c1ccccc1,lysine-containing peptide,"peptide depletion, mass spectrometry",,"24 h, pH 10.2, room temperature, with: lysine peptide 0.5 mM",,550 µM
CC(C)/C=C/c1c(O)cc(/C=C/c2ccccc2)cc1O,Sp1 (human),"reporter gene, inhibitor",SW1353,control transcription factor,,> 25 µg/mL
NCC1OC(OC2C(N)CC(N)C(OC3OC(CSc4cccc(F)c4)C(O)C(N)C3O)C2O)C(N)CC1O (stereo not drawn),Escherichia coli ribosome wild type,"EF-G-dependent translocation, inhibitor, toeprinting",,,,72 µM
NC[C@@H]1O[C@H](O[C@H]2[C@@H](O)[C@H](O[C@@H]3[C@@H](O)[C@H](N)C[C@H](N)[C@H]3O[C@H]3O[C@H](CO)C[C@H](O)[C@H]3N)O[C@@H]2CO)[C@H](N)[C@@H](O)[C@@H]1O,Mycobacterium smegmatis ribosome G1491A,"translation, cell-free luciferase synthesis",,,,2.4 ± 0.1 µg/mL
CC(C)/C=C/c1c(O)cc(/C=C/c2ccc(O)c(O)c2)cc1O,Sp1 (human),"reporter gene, inhibitor",SW1353,control transcription factor,,> 25 µg/mL
CNC(=O)CCC[C@@H](C)C[C@@H](OC(=O)[C@H](C)CCCC(=O)O)C(C)(C)C,voltage-gated sodium channels,"veratridine-stimulated Na+ influx, antagonist, SBFI fluorescence",primary mouse cerebrocortical neurons,,,> 10 µM
Oc1cccc(CCc2ccccc2)c1,Sp1 (human),"reporter gene, inhibitor",SW1353,control transcription factor,,> 25 µg/mL
NC[C@@H]1O[C@H](O[C@H]2[C@@H](O)[C@H](O[C@@H]3[C@@H](O)[C@H](N)C[C@H](N)[C@H]3O[C@H]3O[C@H](CO)[C@@H](O)[C@H](O)[C@H]3N)O[C@@H]2CO)[C@H](N)[C@@H](O)[C@@H]1O,Mycobacterium smegmatis ribosome G1491A,"translation, cell-free luciferase synthesis",,,,0.57 ± 0.09 µg/mL
CNC(=O)CCC[C@@H](C)C[C@@H](OC(=O)[C@H](C)CCCCO)C(C)(C)C,voltage-gated sodium channels,"veratridine-stimulated Na+ influx, antagonist, SBFI fluorescence",primary mouse cerebrocortical neurons,,,> 10 µM
